Measured values collected from several papers.
Compare with care: the assays were run in different laboratories. ± marks the error that the study gave.
Technique: steady-state kinetics
B1: Tcur_2987 W263A (Thermomonospora curvata, UniProt D1A807); chain ACSEERAAGARPSATQTTGTATEPFHGPHQAGIATPPQAHAVFLGLDLRKGTGRKELGRLMRLLTDDARRLTQGRPALADPEPDLAPLPSRLTFTFGFGPGLFKAAGLEKQRPEGLRPLPPFKVDRLEDRWSGGDLLVQICCDDPITLAHALRMTVKDARAFTRVRWVQRGFRRSPGVQSSGATQRNLMGQLDGTVNPVPGTADFDQAVWVQDGPEWLRGGTTLVLRRIRMELEKADEADPAGKEFAVGRRLTSGAPLTGRHEHDEPDFDAVDSAGFPVIAENAHIRLAHVDSPRLRMLRRPYNYDEGLTADGRSDAGLLFAAYQADIDRQFIPVQRRLDEGGDLLNLWTTPIGSAVFAIPPGCDENGWIGQGLLG
B2: UGT74D1 (Arabidopsis thaliana, UniProt Q9SKC5); chain MGEKAKANVLVFSFPIQGHINPLLQFSKRLLSKNVNVTFLTTSSTHNSILRRAITGGATALPLSFVPIDDGFEEDHPSTDTSPDYFAKFQENVSRSLSELISSMDPKPNAVVYDSCLPYVLDVCRKHPGVAAASFFTQSSTVNATYIHFLRGEFKEFQNDVVLPAMPPLKGNDLPVFLYDNNLCRPLFELISSQFVNVDDIDFFLVNSFDELEVEVLQWMKNQWPVKNIGPMIPSMYLDKRLAGDKDYGINLFNAQVNECLDWLDSKPPGSVIYVSFGSLAVLKDDQMIEVAAGLKQTGHNFLWVVRETETKKLPSNYIEDICDKGLIVNWSPQLQVLAHKSIGCFMTHCGWNSTLEALSLGVALIGMPAYSDQPTNAKFIEDVWKVGVRVKADQNGFVPKEEIVRCVGEVMEDMSEKGKEIRKNARRLMEFAREALSDGGNSDKNIDEFVAKIVR
B3: SACOL1063 (Staphylococcus aureus, UniProt Q5HH30); chain MFSKVNNQKMLEDCFYIRKKVFVEEQGVPEESEIDEYESESIHLIGYDNGQPVATARIRPINETTVKIERVAVMKSHRGQGMGRMLMQAVESLAKDEGFYVATMNAQCHAIPFYESLNFKMRGNIFLEEGIEHIEMTKKLTSLN
B4: LYPLA2 (Homo sapiens, UniProt O95372); chain MCGNTMSVPLLTDAATVSGAERETAAVIFLHGLGDTGHSWADALSTIRLPHVKYICPHAPRIPVTLNMKMVMPSWFDLMGLSPDAPEDEAGIKKAAENIKALIEHEMKNGIPANRIVLGGFSQGGALSLYTALTCPHPLAGIVALSCWLPLHRAFPQAANGSAKDLAILQCHGELDPMVPVRFGALTAEKLRSVVTPARVQFKTYPGVMHSSCPQEMAAVKEFLEKLLPPV
B5: FDC1 (Saccharomyces cerevisiae, UniProt Q03034); chain MRKLNPALEFRDFIQVLKDEDDLIEITEEIDPNLEVGAIMRKAYESHLPAPLFKNLKGASKDLFSILGCPAGLRSKEKGDHGRIAHHLGLDPKTTIKEIIDYLLECKEKEPLPPITVPVSSAPCKTHILSEEKIHLQSLPTPYLHVSDGGKYLQTYGMWILQTPDKKWTNWSIARGMVVDDKHITGLVIKPQHIRQIADSWAAIGKANEIPFALCFGVPPAAILVSSMPIPEGVSESDYVGAILGESVPVVKCETNDLMVPATSEMVFEGTLSLTDTHLEGPFGEMHGYVFKSQGHPCPLYTVKAMSYRDNAILPVSNPGLCTDETHTLIGSLVATEAKELAIESGLPILDAFMPYEAQALWLILKVDLKGLQALKTTPEEFCKKVGDIYFRTKVGFIVHEIILVADDIDIFNFKEVIWAYVTRHTPVADQMAFDDVTSFPLAPFVSQSSRSKTMKGGKCVTNCIFRQQYERSFDYITCNFEKGYPKGLVDKVNENWKRYGYK
B6: Mgst1 unactivated (Rattus norvegicus, UniProt P08011); chain ADLKQLMDNEVLMAFTSYATIILAKMMFLSSATAFQRLTNKVFANPEDCAGFGKGENAKKFLRTDEKVERVRRAHLNDLENIVPFLGIGLLYSLSGPDLSTALIHFRIFVGARIYHTIAYLTPLPQPNRGLAFFVGYGVTLSMAYRLLRSRLYL
B7: CstB (Staphylococcus aureus, UniProt G5ELA4); chain MFFKQFYDNHLSQASYLVGCQRTGEAIIIDPVRDLSKYIEVADSEGLTITQATETHIHADFASGIRDVAKRLNANIYVSGEGEDALGYKNMPSKTQFVKHGDIIQVGNVKLEVLHTPGHTPESISFLLTDLGGGSSVPMGLFSGDFIFVGDIGRPDLLEKSVQIKGSTEISAKQMYESVQNIKNLPDYVQIWPGHGAGSPCGKALGAIPISTIGYEKINNWAFNEIDETKFIESLTSNQPAPPHHFAQMKQVNQFGMNLYQSYDVYPSLDNKRVAFDLRSKEAFHGGHTKGTINIPYNKNFINQIGWYLDFEKDIDLIGDKSTVEKAKHTLQLIGFDKVAGYRLPKSGISTQSVHSADMTGKEEHVLDVRNDEEWNNGHLDQAVNIPHGKLLNENIPFNKEDKIYVHCQSGVRSSIAVGILESKGFENVVNIREGYQDFPESLK
B8: asnB E349A (Escherichia coli, UniProt P22106); chain CSIFGVFDIKTDAVELRKKALELSRLMRHRGPDWSGIYASDNAILAHERLSIVDVNAGAQPLYNQQKTHVLAVNGEIYNHQALRAEYGDRYQFQTGSDCEVILALYQEKGPEFLDDLQGMFAFALYDSEKDAYLIGRDHLGIIPLYMGYDEHGQLYVASEMKALVPVCRTIKEFPAGSYLWSQDGEIRSYYHRDWFDYDAVKDNVTDKNELRQALEDSVKSHLMSDVPYGVLLSGGLDSSIISAITKKYAARRVEDQERSEAWWPQLHSFAVGLPGSPDLKAAQEVANHLGTVHHEIHFTVQEGLDAIRDVIYHIETYDVTTIRASTPMYLMSRKIKAMGIKMVLSGAGSDEVFGGYLYFHKAPNAKELHEETVRKLLALHMYDCARANKAMSAWGVEARVPFLDKKFLDVAMRINPQDKMCGNGKMEKHILRECFEAYLPASVAWRQKEQFSDGVGYSWIDTLKEVAAQQVSDQQLETARFRFPYNTPTSKEAYLYREIFEELFPLPSAAECVPGGPSVACSSAKAIEWDEAFKKMDDPSGRAVGVHQSAYK
B9: cyc1 V329M (Streptomyces coelicolor, UniProt Q9K499); chain MHAFPHGTTATPTAIAVPPSLRLPVIEAAFPRQLHPYWPKLQETTRTWLLEKRLMPADKVEEYADGLCYTDLMAGYYLGAPDEVLQAIADYSAWFFVWDDRHDRDIVHGRAGAWRRLRGLLHTALDSPGDHLHHEDTLVAGFADSVRRLYAFLPATWNARFARHFHTVIEAYDREFHNRTRGIVPGVEEYLELRRLTFAHWIWTDLLEPSSGCELPDAVRKHPAYRRAALLSQEFAAWYNDLCSLPKEIAGDEVHNLGISLITHHSLTLEEAIGEVRRRVEECITEFLAVERDALRFADELADGTVRGKELSGAVRANVGNMRNWFSSMYWFHHESGRYMVDSWDDRSTPPYVNNEAAGEK
B10: putA D779Y (Bradyrhizobium diazoefficiens, UniProt Q89E26); chain MPNIPPPFTAPYAPDDAEIAARLLPASHLSPPQEARIHRTATRLIEAIRKRDDRLGGVEDMLREFALSTKEGLALMVLAEALLRVPDARTADQFIEDKLGEGDFIHHETKSTAFLVNASAWALGLSARVIQPGETPDGTIGRLVKRLGAPAVRTATRQAMRLMGNHFVLGETIEQALERGKPRSGQKTRYSFDMLGEGARTAADARRYFDAYASAIETIGKAAGNHALPDRPGISVKLSALHPRFEAISRARVMVELVPQLLDLAQRAKAHDLNFTVDAEEADRLELSLDVIAATLADPSLKGWDGFGLAIQAYQKRASAVIDYVDALARAHDRKLMVRLVKGAYWDTEIKRAQERGLDGYPVFTRKAMTDLNYVACASKLLALRPRIFPQFATHNALTVATVLEMAEGSSGFEFQRLHGMGEALYEQLAKDHADIAYRTYAPVGSHRDLLAYLVRRLLENGANSSFVAQAADYRVPVPALLQRPADAIVRPQAAAHPRIPLPCDLFAPERRNSRGVEFGARTALDQLLTDVKAETGDLKPIADATPDQAHAAVAAARAGFAGWSRTPAGIRAAALEQAAHLLESRSAHFIALLQREGGKTLDDALSELREAADFCRYYAAQGRKLFGSETAMPGPTGESNALTMRGRGVFVAISPWNFPLAIFLGQVTAALMAGNSVVAKPAEQTPRIAREAVALLHEAGIPKSALYLVTGDGRIGAALTAHPDIAGVVFTGSTEVARSINRALAAKDGPIVPLIAETGGINAMIADATALPEQVADYVVTSAFRSAGQRCSALRLLFVQEDVADRMIEMVAGAARELKIGDPSDVATHVGPVIDVEAKQRLDAHIARMKTEARLHFAGPAPEGCFVAPHIFELTEAGQLTEEVFGPILHVVRYRPENLERVLRAIERTGYGLTLGVHSRIDDSIEAIIDRVQVGNIYVNRNMIGAVVGVQPFGGNGLSGTGPKAGGPHYLARFATEQTVTINTAAAGGNAALLAGEE
UniProt A4YGN2, sequence (whole entry, looked up): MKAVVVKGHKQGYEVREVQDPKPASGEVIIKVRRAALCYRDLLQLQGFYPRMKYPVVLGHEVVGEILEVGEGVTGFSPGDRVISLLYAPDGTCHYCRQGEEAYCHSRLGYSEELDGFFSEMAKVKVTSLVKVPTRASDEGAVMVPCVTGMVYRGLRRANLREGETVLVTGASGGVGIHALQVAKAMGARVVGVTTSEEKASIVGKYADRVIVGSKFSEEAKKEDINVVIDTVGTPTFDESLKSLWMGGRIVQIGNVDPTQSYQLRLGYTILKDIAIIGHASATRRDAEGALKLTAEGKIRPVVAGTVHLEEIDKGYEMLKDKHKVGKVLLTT
UniProt P07914, sequence (whole entry, looked up): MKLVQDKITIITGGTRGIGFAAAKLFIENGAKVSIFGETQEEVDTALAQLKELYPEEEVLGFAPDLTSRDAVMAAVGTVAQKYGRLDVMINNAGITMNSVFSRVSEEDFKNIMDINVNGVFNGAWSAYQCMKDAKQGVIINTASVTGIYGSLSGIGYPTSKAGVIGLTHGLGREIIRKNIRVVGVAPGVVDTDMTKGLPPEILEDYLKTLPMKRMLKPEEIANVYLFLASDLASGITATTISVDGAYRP
UniProt P12081, sequence (whole entry, looked up): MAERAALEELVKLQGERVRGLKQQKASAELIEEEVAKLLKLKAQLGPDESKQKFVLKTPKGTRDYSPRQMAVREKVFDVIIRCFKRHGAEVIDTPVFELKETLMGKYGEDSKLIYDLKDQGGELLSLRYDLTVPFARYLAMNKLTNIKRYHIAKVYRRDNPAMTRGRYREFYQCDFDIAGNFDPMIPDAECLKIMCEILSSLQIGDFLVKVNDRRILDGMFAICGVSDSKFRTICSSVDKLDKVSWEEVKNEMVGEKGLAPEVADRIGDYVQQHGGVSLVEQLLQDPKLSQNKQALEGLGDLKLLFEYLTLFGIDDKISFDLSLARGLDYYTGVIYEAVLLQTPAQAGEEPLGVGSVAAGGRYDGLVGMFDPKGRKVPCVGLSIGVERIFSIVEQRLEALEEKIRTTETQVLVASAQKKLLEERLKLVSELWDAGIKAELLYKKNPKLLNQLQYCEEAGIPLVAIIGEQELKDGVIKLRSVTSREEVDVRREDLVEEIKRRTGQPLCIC
UniProt Q9STE6, sequence (whole entry, looked up): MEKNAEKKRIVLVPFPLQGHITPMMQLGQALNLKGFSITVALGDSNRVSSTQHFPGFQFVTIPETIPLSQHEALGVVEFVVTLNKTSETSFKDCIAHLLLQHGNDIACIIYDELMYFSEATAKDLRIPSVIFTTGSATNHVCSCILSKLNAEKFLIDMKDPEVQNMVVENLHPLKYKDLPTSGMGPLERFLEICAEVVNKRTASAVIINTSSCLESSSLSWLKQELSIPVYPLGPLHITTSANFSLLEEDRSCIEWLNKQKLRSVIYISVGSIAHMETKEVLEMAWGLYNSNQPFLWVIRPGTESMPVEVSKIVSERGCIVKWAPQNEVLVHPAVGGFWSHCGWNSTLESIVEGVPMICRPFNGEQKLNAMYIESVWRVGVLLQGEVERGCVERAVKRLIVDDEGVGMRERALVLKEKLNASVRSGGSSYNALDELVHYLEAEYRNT

Molecule | substrate | pH | temperature | notes | added | kcat/Km [M⁻¹ s⁻¹]
B1 (Tcur_2987 W263A) | Nc1c(S(=O)(=O)O)cc(Nc2cccc(S(=O)(=O)CCOS(=O)(=O)O)c2)c2c1C(=O)c1ccccc1C2=O | pH 3 | – | sigmoidal kinetics | H2O2 1 mM | 1.9e+06
B2 (UGT74D1) | O=C(O)Cc1c[nH]c2ccccc12 | pH 7.5 | 30 °C | – | – | 9170
B3 (SACOL1063) | CC(=O)SCCNC(=O)CCNC(=O)[C@H](O)C(C)(C)COP(=O)(O)OP(=O)(O)OC[C@H]1O[C@@H](n2cnc3c(N)ncnc32)[C@H](O)[C@@H]1OP(=O)(O)O | pH 8 | 37 °C | – | L-Thr 10 mM, AcCoA 0-2 mM | 12800
B4 (LYPLA2) | CN(C)c1ccc(/N=N/c2ccc(C(=O)NCCCn3cc(CCCCCCCCCCCCCCCC(=O)SC[C@H](NC(=O)c4cc5ccc(O)cc5oc4=O)C(=O)N4CCOCC4)nn3)cc2)cc1 | pH 7.4 | 37 °C | – | – | 2300
B5 (FDC1) | O=C(O)/C=C/c1ccc(O)cc1 | pH 7 | 25 °C | apparent kcat, incomplete cofactor occupancy, apparent | – | 13600 ± 880
B6 (Mgst1 unactivated) | CC(=O)c1ccc(Cl)c([N+](=O)[O-])c1 | pH 6.5 | 5 °C | potassium phosphate 0.1 M, unactivated enzyme | GSH 5 mM | 210 ± 30
HARS1 (Homo sapiens, UniProt P12081) | N[C@@H](Cc1c[nH]cn1)C(=O)O | pH 7.5 | 37 °C | KCl 150 mM | tRNA(His) | 500000 ± 400000
B7 (CstB) | O=S(O)(O)=S | pH 6 | 25 °C | – | KCN 50 mM | 5000 ± 700
Ptb (Listeria monocytogenes, UniProt Q8Y7B7) | CC(=O)SCCNC(=O)CCNC(=O)[C@H](O)C(C)(C)COP(=O)(O)OP(=O)(O)OC[C@H]1O[C@@H](n2cnc3c(N)ncnc32)[C@H](O)[C@@H]1OP(=O)(O)O | pH 7.5 | 25 °C | apparent, poor fit | – | 300000
enzyme (Arabidopsis thaliana, UniProt Q9STE6) | O=c1ccn([C@@H]2O[C@H](CO[P@@](=O)(O)O[P@@](=O)(O)O[C@H]3O[C@H](CO)[C@@H](O)[C@H](O)[C@H]3O)[C@@H](O)[C@H]2O)c(=O)[nH]1 | pH 7.5 | 25 °C | – | – | 2210
B8 (asnB E349A) | NC(=O)CC[C@H](N)C(=O)O | pH 8 | 37 °C | 100 mM NaCl, glutaminase site | MgCl2; no ATP | 1100
B9 (cyc1 V329M) | CC(C)=CCC/C(C)=C/CC/C(C)=C/CO[P@@](=O)(O)OP(=O)(O)O | pH 6.5 | 30 °C | – | MgCl2 10 mM | 98 ± 3
acryloyl-CoA reductase (Metallosphaera sedula, UniProt A4YGN2) | C=CC(=O)SCCNC(=O)CCNC(=O)[C@H](O)C(C)(C)COP(=O)(O)OP(=O)(O)OC[C@H]1O[C@@H](n2cnc3c(N)ncnc32)[C@H](O)[C@@H]1OP(=O)(O)O | pH 6.5 | 65 °C | substrate made in situ | ATP, CoA, NADPH | 501000
B10 (putA D779Y) | O=C(O)[C@@H]1CCC=N1 | pH 7.5 | 23 °C | – | – | 100 ± 16
BaiA1 (Clostridium scindens, UniProt P07914) | C[C@H](CCC(=O)SCCNC(=O)CCNC(=O)[C@H](O)C(C)(C)COP(=O)(O)OP(=O)(O)OC[C@H]1O[C@@H](n2cnc3c(N)ncnc32)[C@H](O)[C@@H]1OP(=O)(O)O)[C@H]1CC[C@H]2[C@@H]3CC[C@@H]4CC(=O)CC[C@]4(C)[C@H]3C[C@H](O)[C@]12C | pH 8.7 | 37 °C | – | NADH | 131000
enzyme (Actinoalloteichus caeruleus, UniProt M1F4W9) | CSc1c(O)cc(-c2ccccn2)nc1C(=O)N[C@@H](CC(C)C)C(=O)O | pH 8 | 30 °C | – | – | 900
enzyme (Helicobacter pylori, UniProt O24890) | N=C(N)NCCC[C@H](N)C(=O)O | pH 8 | 37 °C | – | – | < 0.0172

Repeated from above:
Molecule | substrate | pH | temperature | notes | added | kcat/Km [M⁻¹ s⁻¹]
acryloyl-CoA reductase (Metallosphaera sedula, UniProt A4YGN2) | C=CC(=O)SCCNC(=O)CCNC(=O)[C@H](O)C(C)(C)COP(=O)(O)OP(=O)(O)OC[C@H]1O[C@@H](n2cnc3c(N)ncnc32)[C@H](O)[C@@H]1OP(=O)(O)O | pH 6.5 | 65 °C | substrate made in situ | ATP, CoA, NADPH | 501000
